Experimental data from different studies.
Numbered parts are unrelated; each lists some results of a single study. ± gives the spread as reported.
Chain of UniProt P03300 (whole entry, looked up): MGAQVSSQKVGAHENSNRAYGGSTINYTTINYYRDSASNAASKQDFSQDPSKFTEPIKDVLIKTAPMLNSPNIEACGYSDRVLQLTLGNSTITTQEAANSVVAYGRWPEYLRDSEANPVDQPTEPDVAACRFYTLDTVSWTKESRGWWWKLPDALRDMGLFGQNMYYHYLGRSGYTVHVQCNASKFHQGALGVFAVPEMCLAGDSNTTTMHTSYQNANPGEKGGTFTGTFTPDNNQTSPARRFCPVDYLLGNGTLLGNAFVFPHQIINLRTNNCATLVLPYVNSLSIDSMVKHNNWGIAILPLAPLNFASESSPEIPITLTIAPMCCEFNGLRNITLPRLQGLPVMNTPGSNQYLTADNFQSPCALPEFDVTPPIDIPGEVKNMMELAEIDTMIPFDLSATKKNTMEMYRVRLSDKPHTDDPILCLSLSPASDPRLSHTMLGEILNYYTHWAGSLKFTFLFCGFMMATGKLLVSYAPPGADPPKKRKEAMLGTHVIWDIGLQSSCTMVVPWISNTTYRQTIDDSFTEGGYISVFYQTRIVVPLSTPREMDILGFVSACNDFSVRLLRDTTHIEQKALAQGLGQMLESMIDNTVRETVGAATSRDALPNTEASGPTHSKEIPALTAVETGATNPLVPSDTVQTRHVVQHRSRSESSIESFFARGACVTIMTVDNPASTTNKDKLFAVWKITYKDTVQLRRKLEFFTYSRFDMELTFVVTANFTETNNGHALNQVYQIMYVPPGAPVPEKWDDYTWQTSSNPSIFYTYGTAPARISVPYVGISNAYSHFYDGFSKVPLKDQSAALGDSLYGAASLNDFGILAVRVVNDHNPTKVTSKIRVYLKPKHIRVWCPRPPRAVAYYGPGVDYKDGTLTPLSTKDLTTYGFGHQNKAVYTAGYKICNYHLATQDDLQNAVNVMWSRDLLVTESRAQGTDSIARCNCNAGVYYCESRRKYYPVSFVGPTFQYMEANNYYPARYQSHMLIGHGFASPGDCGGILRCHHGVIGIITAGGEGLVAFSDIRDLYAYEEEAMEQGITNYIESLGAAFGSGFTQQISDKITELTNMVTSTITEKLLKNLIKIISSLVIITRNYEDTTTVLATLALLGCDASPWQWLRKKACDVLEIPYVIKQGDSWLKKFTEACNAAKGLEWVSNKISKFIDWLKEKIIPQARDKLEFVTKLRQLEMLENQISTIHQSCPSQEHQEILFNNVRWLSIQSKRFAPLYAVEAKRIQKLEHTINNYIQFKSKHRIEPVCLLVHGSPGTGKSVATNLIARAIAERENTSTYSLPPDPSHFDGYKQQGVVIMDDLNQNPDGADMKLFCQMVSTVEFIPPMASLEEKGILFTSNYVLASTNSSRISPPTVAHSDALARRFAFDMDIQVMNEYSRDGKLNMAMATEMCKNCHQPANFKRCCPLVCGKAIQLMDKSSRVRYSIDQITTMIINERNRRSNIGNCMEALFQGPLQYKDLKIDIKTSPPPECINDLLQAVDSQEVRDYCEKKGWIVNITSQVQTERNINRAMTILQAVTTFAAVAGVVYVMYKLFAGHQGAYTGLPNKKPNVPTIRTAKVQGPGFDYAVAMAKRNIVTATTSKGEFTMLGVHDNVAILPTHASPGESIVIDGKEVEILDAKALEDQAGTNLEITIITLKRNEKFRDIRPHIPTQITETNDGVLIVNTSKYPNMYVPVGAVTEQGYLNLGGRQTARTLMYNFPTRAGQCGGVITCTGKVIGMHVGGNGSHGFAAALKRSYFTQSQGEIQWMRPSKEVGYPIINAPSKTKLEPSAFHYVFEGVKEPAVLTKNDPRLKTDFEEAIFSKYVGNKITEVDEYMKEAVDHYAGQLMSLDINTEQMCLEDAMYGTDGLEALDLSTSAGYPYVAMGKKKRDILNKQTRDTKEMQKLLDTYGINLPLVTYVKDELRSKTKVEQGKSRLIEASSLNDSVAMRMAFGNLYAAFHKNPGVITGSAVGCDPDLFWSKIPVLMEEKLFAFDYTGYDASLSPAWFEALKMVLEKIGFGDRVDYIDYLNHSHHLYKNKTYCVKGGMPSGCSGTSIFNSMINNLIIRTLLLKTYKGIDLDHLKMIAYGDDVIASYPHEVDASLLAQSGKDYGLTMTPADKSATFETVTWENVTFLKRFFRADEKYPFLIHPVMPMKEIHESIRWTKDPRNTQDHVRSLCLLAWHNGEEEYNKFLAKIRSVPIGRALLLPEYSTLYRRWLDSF
Chain of UniProt P9WPP7 (whole entry, looked up): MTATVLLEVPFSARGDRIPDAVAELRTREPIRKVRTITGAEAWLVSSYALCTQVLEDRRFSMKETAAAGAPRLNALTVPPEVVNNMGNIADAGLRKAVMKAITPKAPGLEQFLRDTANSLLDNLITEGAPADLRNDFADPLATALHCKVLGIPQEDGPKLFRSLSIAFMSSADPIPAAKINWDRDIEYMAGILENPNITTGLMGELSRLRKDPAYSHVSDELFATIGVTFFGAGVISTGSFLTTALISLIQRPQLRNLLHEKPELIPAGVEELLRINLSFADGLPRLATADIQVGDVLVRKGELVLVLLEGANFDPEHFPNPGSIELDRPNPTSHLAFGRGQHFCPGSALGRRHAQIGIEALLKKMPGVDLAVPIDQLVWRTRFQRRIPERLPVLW

Set 1 — cell line: mouse MPNST tumor cells; technique: high-content nuclear imaging; item: cell number; tested at: 10 µM; time: 12 h; notes: mean of 2 replicates; reference: plate mean; reading: higher = more cells
SMILES	nuclei count
O=C(NC(=O)c1c(F)cccc1F)Nc1cc(Cl)c(OC(F)(F)C(F)C(F)(F)F)cc1Cl (stereo not shown)	0.0709 z-score
N#CC(=Cc1ccc(O)cc1)C(=O)O	1.14 z-score
C=C(C)[C@@H]1[C@H]2OC(=O)[C@@H]1[C@]1(O)C[C@H]3O[C@]34C(=O)O[C@H]2[C@]14C	0.775 z-score

Set 2 — cell line: HEK-293T/ACE2; observed: pseudovirus infection; organism: VSV pseudotyped with SARS-CoV-2 spike; tested at: concentration not given; reference: vehicle-treated
Structure (SMILES)	GFP-positive cells [%]
CC(CN(C)C)CN1c2ccccc2Sc2ccccc21.CC(CN(C)C)CN1c2ccccc2Sc2ccccc21.O=C(O)C(O)C(O)C(=O)O (stereo not shown)	32.7
CNC[C@H](O)[C@@H](O)[C@H](O)[C@H](O)CO.CNC[C@H](O)[C@@H](O)[C@H](O)[C@H](O)CO.C[C@@H](O[C@H]1OCCN(Cc2nn(P(=O)(O)O)c(=O)[nH]2)[C@H]1c1ccc(F)cc1)c1cc(C(F)(F)F)cc(C(F)(F)F)c1	62.5
C[C@@H]1CCO[C@H]2Cn3cc(C(=O)NCc4ccc(F)cc4F)c(=O)c([O-])c3C(=O)N12.[Na+]	89.8
C/C=C1\NC(=O)[C@H]2CSSCC/C=C/[C@H](CC(=O)N[C@H](C(C)C)C(=O)N2)OC(=O)[C@H](C(C)C)NC1=O	37.5

Set 3 — observed: enzyme activity; mode: inhibitor; tested at: 20 µM; notes: hit confirmation
Target: Replicase polyprotein 1ab, main protease (rep, Severe acute respiratory syndrome coronavirus 2, UniProt P0DTD1)
Compound	inhibition [%]
O=C(NC(=S)N1CCCc2ccccc21)c1ccccc1	81.1
CC(C)Nc1cccnc1N1CCN(C(=O)c2cc3cc(NS(C)(=O)=O)ccc3[nH]2)CC1	86.7
CC[C@]12C=CCN3CC[C@@]4(c5cc([C@@]6(C(=O)OC)C[C@@H]7C[C@@H](C(C)(F)F)C[N@](CCc8c6[nH]c6ccccc86)C7)c(OC)cc5N(C)[C@H]4[C@@](O)(C(=O)OC)[C@@H]1OC(C)=O)[C@@H]32	97.2

Set 4 — mode: inhibitor; tested at: 20 µM
Target: Replicase polyprotein 1ab, nsp13 helicase (rep, Severe acute respiratory syndrome coronavirus 2, UniProt P0DTD1)
Structure (SMILES)	inhibition
NC[C@@H]1O[C@H](C23CC4CC(CC(C4)C2)C3)Cc2c1ccc(O)c2O	-3.68%
Nc1c(Br)cc(Br)cc1CN[C@H]1CC[C@H](O)CC1	3.22%
Cc1cccc(NC(=O)N[C@@H]2N=C(c3ccccc3)c3ccccc3N(C)C2=O)c1	1.67%
CCC[C@@H]1CC(=O)N([C@@H](CC)C(N)=O)C1	0.21%
C[C@@H](N)[C@H]1CC[C@H](C(=O)Nc2ccncc2)CC1	9.03%
CC(C)C(=O)Oc1ccc(CO)cc1[C@H](CCN(C(C)C)C(C)C)c1ccccc1	2.32%
COc1ccc([C@@H]2CNC(=O)C2)cc1OC1CCCC1	-0.06%
Cc1cc(C)c(S(=O)(=O)Nc2cccc(C(F)(F)F)c2)c(C)c1	13%
CCn1c(=O)c(-c2ccc(Cl)cc2Cl)cc2cnc(Nc3ccc(N4CCNCC4)c(F)c3)nc21	-2.73%
CCOc1ccccc1C(N)=O	6.23%
NS(=O)(=O)c1ccc(-n2nc(C(F)(F)F)cc2-c2ccc(Cl)cc2)cc1	-0.39%
CCn1c(-c2nonc2N)nc2cncc(CNC3CCNCC3)c21	6.31%
COc1ccc(CNC(=O)c2sc3nc(C)cc(C)c3c2N)cc1	7.77%
O=C1CN(/N=C/c2ccc(-c3ccc([N+](=O)[O-])cc3)o2)C(=O)N1	9.13%
CCCCCCCCCCCCCCCCCC(=O)OC[C@@H](O)[C@H]1OC[C@H](O)[C@H]1O	3.82%
CC(=O)OCC(=O)[C@@]1(O)CC[C@H]2[C@@H]3CCC4=CC(=O)C=C[C@]4(C)[C@H]3[C@@H](O)C[C@@]21C	-1.09%
COc1ccc(Cc2nccc3cc(OC)c(OC)cc23)cc1OC	5.5%
C[C@H]1C[C@H]2[C@@H]3CCC4=CC(=O)C=C[C@]4(C)[C@H]3C(=O)C[C@]2(C)[C@@]1(O)C(=O)CO	3.42%
NC(=O)CN1Cc2ccccc2OC1=O	0.82%
CCN1CCN(Cc2ccc(C(=O)Nc3ccc(C)c(Oc4ccc5c(c4)CC(=O)N5)c3)cc2C(F)(F)F)CC1	8.09%

Single results of other studies
Structure (SMILES)	tested on	assay	test system	setting	measurement	value
O=[N+]([O-])c1ccc(O)c2ncccc12	SARS-CoV-2	viral replication	Omicron		EC50	4.1 ± 0.7 µM
Cc1cccc(C(C)c2cnc[nH]2)c1C (stereo not shown)	SARS-CoV-2	viral replication	Huh-7		IC50	> 2 µM
N#Cc1ccc(N2N=C3c4ccccc4CCC3C2C2CCCC2)cc1Cl (stereo not shown)	Replicase polyprotein 1ab, methyltransferase (rep, Severe acute respiratory syndrome coronavirus 2, UniProt P0DTD1)	enzyme activity, inhibitor			IC50	> 100 µM
CCC(CC)O[C@@H]1C=C(C(=O)O)C[C@H](N)[C@H]1NC(C)=O	neuraminidase (Influenza A virus, UniProt C6ELZ0)		human reference strains	mean	IC50	0.00014 ± 1e-05 µM
C=CC(c1ccc(-c2ccc3cc(OC)ccc3c2)cc1)n1ccnc1 (stereo not shown)	cyp121 (Mycobacterium tuberculosis, UniProt P9WPP7)	binding			Kd	0.8 µM
CC(C)C[C@H](NC(=O)[C@H](CO)NC(=O)[C@H](CC(C)C)NC(=O)[C@@H]1CCCN1C(=O)[C@H](CO)NC(=O)CNC(=O)[C@H](CC(C)C)NC(=O)[C@@H](N)CCCNC(=N)N)C(=O)O	HLA class I histocompatibility antigen, A alpha chain (Homo sapiens, UniProt P04439)	binding, competitor			IC50	7.64 µM
Nc1ncnc2c1ncn2[C@@H]1O[C@H](COP(=O)(O)OP(=O)(O)OP(=O)(O)O)[C@@H](O)[C@H]1O	Genome polyprotein, 3D RNA polymerase (Human poliovirus 1 Mahoney, UniProt P03300)				Kd	5 ± 1 µM
C[C@H]1O[C@@H](O[C@H]2[C@@H](O)C[C@H](O[C@H]3[C@@H](O)C[C@H](O[C@H]4CC[C@@]5(C)[C@H](CC[C@@H]6[C@@H]5CC[C@]5(C)[C@@H](C7=CC(=O)OC7)CC[C@]65O)C4)O[C@@H]3C)O[C@@H]2C)C[C@H](O)[C@@H]1O	MDA-MB-231	cell migration, scratch wound			IC50	0.046 µM
NC[C@H]1OB(O)c2c(OCCCO)cccc21	SARS-CoV-2	viral replication	Huh-7		IC50	> 2 µM
CC(C)(C)[C@H](NC(=O)C(F)(F)F)C(=O)N1C[C@H]2[C@@H]([C@H]1C(=O)N[C@H](C#N)C[C@@H]1CCNC1=O)C2(C)C	Norovirus	viral replication	HG23 replicon cells	96 h	EC90	> 10 µM
